Measurements from different studies.
Each line is one published result; not all experiments were run side by side. ± gives the spread as reported.
B1: E7 (human papillomavirus, UniProt P03129); chain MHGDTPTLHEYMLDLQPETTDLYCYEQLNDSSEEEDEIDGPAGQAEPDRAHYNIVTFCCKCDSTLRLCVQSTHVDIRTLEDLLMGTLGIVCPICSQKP
Sequence of UniProt P06400 (whole entry, unmodified, looked up): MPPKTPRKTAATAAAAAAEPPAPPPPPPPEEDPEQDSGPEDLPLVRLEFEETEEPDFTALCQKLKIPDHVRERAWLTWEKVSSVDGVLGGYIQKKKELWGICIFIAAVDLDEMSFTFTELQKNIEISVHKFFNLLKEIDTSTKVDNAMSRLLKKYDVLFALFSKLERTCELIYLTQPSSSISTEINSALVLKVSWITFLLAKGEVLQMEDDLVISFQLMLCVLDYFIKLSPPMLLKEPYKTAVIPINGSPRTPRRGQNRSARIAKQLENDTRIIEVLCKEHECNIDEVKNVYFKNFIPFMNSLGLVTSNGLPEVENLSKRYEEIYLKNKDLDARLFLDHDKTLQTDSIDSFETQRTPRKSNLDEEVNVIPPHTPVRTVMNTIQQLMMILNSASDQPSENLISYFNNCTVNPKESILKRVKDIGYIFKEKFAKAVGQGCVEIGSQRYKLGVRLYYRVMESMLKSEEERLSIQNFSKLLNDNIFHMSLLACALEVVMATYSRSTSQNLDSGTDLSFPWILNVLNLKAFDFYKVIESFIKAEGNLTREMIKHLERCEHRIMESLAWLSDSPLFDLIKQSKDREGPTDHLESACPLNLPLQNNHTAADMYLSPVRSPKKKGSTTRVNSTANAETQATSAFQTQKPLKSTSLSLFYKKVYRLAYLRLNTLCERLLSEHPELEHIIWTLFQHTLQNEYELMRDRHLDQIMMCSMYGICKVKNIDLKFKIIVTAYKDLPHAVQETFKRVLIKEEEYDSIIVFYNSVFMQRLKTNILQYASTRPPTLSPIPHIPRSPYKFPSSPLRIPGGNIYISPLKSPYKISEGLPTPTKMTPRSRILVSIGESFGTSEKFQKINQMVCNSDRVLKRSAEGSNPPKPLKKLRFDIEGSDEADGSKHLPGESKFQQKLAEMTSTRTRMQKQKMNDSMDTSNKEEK
Sequence of UniProt P02751 (whole entry, looked up): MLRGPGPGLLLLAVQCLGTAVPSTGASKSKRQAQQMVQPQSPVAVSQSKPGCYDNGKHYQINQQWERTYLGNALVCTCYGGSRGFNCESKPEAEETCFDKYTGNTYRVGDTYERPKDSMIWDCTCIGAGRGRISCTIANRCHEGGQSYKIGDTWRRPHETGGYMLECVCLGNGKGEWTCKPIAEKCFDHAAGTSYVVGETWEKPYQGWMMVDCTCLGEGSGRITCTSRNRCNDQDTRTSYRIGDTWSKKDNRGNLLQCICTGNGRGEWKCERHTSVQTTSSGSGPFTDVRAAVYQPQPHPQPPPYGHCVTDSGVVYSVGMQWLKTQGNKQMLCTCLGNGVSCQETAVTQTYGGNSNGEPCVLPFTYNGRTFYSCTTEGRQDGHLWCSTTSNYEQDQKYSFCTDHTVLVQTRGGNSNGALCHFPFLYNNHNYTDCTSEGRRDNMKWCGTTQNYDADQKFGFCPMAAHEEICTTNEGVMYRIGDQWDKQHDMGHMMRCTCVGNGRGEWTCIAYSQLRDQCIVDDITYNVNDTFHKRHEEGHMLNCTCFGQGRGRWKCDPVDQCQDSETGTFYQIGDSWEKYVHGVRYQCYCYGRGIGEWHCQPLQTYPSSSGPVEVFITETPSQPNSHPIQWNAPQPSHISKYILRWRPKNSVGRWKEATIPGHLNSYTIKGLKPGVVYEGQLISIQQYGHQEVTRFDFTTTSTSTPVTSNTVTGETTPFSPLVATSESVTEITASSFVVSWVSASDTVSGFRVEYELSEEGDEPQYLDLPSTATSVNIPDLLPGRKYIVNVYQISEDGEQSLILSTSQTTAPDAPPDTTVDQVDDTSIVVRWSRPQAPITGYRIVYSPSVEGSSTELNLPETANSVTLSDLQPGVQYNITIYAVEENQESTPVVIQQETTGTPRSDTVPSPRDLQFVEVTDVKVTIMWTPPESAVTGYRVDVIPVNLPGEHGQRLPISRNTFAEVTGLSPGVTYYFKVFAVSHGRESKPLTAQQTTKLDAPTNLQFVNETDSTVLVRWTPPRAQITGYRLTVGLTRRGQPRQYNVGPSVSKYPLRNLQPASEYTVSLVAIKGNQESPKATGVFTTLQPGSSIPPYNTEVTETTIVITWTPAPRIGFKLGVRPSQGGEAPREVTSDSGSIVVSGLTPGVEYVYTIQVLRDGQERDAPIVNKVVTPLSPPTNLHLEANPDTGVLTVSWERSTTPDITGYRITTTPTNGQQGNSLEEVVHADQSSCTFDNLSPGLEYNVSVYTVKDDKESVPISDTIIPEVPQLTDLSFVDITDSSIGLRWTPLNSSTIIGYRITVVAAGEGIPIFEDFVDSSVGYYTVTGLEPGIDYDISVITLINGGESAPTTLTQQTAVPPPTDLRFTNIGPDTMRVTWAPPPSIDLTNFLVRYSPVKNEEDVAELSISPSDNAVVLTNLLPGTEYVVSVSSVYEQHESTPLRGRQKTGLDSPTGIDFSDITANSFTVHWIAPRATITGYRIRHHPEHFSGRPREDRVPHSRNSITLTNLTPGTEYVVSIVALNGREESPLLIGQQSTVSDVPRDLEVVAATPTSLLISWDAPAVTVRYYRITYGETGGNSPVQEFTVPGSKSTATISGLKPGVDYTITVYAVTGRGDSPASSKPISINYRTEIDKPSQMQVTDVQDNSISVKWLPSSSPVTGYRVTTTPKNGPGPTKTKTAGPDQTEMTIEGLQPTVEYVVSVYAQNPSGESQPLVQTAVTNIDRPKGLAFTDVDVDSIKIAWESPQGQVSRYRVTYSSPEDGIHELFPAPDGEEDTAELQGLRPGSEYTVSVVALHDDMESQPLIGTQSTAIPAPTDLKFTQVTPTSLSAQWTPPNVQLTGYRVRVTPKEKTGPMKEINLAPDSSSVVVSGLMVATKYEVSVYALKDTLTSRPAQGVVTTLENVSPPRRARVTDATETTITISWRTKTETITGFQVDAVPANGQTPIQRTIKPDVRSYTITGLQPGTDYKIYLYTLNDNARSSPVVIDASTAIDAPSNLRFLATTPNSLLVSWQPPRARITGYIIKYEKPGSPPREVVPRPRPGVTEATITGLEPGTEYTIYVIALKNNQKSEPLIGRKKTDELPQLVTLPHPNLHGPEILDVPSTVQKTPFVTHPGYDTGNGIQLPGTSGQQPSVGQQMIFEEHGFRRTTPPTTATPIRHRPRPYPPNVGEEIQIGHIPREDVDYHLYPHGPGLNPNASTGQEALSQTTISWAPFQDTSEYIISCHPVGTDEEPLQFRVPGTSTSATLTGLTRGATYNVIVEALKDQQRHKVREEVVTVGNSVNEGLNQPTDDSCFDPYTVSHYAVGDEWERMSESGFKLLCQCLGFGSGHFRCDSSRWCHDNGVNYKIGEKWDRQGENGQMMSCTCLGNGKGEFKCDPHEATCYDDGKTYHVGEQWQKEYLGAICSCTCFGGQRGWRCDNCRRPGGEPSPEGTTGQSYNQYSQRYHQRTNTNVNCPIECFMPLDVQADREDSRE

`AaH II scorpion toxin` — result for “SPR binding response”: 40 to 60 RU (rat Nav1.2a VSD IV paddle peptide; surface plasmon resonance; 100 nM, pH 7.2, 25 °C, 0.1% BSA).
With `H-RNPHLMGIGGGLAGESGETTPK-OH (fnz 370-391 (Streptococcus zooepidemicus))` the Kd was 1.9 ± 0.1 µM (FN1 516-608, N-glycans trimmed to GlcNAc (Homo sapiens, UniProt P02751); competition with ligand, fluorescence polarisation; peptide; pH 7.4, 25 °C, NaCl 150 mM, competition).
`COc1ncncc1-c1cn([C@@H]2O[C@](F)(COC(=O)C(C)C)[C@@H](OC(=O)C(C)C)[C@H]2OC(=O)C(C)C)cn1` gave an IC50 of 21.3 µM (Zaire ebolavirus; viral replication, reporter virus; Huh-7; 72 h).
`B1 (E7)` gave an EC50 of 0.01 ± 0.002 µM (RB1 55-787 del245-267/del582-642, phosphorylated by Cdk2-CycA (UniProt P06400); Rb activation, E2F binding increase, activator, fluorescence polarisation; 20 nM, with: E2F^TMR).
The IC50 of `CC(C)C(=O)OC[C@@]1(F)O[C@@H](n2cnc(-c3cnc(N)nc3)c2)[C@H](OC(=O)C(C)C)[C@@H]1OC(=O)C(C)C` is reported as 56.7 µM (Zaire ebolavirus; viral replication, reporter virus; Huh-7; 72 h).
With `C=CCNc1nnc(Sc2ncnc3ccsc23)s1` the inhibition was 31% (MERS-CoV spike VSV pseudovirus; pseudovirus entry; 10 µM).
For `LiaS fragment T120A (Enterococcus faecium)`, the Kd was 121 ± 6.8 µM (LiaR peptide residues 49-57, FITC label (Enterococcus faecium); MST; with: ATP 0.2 mM).
Under “SPR binding response”, `AaH I scorpion toxin` is recorded as 40 to 60 RU (rat Nav1.2a VSD IV paddle peptide; surface plasmon resonance; 100 nM, pH 7.2, 25 °C, 0.1% BSA).

A few entries again:
With `C=CCNc1nnc(Sc2ncnc3ccsc23)s1` the inhibition was 31% (MERS-CoV spike VSV pseudovirus; pseudovirus entry; 10 µM).
